Results collected from several papers.
Numbered parts are unrelated; each lists some results of a single study. Substitutions count along the parent as printed.

Block 1 — technique: RNA Bind-n-Seq; molecule type: RNA; matrix: in vitro; concentration: 200 nM; notes: whole 134-nt RNA, ends assumed; added: 150 mM KCl; baseline: input library; reading: higher = stronger binding
Target: Fragile X messenger ribonucleoprotein 1, C-terminal low-complexity region (Fmr1, Mus musculus, UniProt P35922)
With `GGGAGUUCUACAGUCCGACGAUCCUGUGCUACACAUCGUAUGUACCGAAUCGGGUUUUUUUGGGUUUUUUUGGGGUUUUUUUGGAAAGUAUUAUGUUACGCCGUUCGGAUCUGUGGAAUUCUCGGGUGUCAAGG` the log2 enrichment was -0.607.
`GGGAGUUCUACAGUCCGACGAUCCACAGACAACACGCACCCACACAGACACAGAGGGAAGGGGUUGGGAUGGGGACAGGGUGCACAAAAGGGCGGGGUAGGACCCCAGCCCCUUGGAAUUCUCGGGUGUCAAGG` gave a log2 enrichment of 1.25.
`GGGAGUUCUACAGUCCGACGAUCUGGCCCUGGUGGCAUGCGGGGAGGAAGAGGUGGCCACAUGGAUCGUGGUGGUCCCGGUGGAAUGUUCAGAGGUGGCCGUGGUGGAGACAGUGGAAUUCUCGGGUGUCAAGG` has a log2 enrichment of 0.126.
With `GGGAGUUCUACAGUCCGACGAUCCACAGACGACACGCACCCACACAGACACAGAGGGAAGGGGUUGGGAUGGGGACAGGGUGCACAGCAGGGCGGGGUAGGACCCCAGCCCCUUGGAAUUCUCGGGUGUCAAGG` the log2 enrichment was 1.29.
`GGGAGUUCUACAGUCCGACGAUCAAGUCCUGUGCUACACAUCGUAUGUACCGAAUCGGGAAAAAAAGGGUUUGGGAGGGAAAGUAUUAUGUUACGCCGUUCGGAUCUGCACUUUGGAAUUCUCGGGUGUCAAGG` gave a log2 enrichment of 0.725.
The log2 enrichment of `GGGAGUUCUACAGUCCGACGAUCUGCUGUUAUCUGGAACUCCUACCUGUCCUGGAAGGCACAUCGGCUCUAAGCCUGCCUCACUCCAUCGUUUCCACCUUGCAGUGAUGCAGCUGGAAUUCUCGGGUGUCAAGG` is reported as -1.5.
The log2 enrichment of `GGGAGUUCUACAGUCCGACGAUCAGUCCUGUGCUACACAUCGUAUGUACCGAAUCAAAUUUUUAAACCCCCAAACCCAAAAAAGUAUUAUGUUACGCCGUUCGGAUCUGCACUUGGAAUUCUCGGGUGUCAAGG` is reported as -0.198.
With `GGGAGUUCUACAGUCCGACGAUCGUCCUGUGCUACACAUCGUAUGUACCGAAUCGGGGAAAAAAAGGGGAGGGGAAAGGGGAAAGUAUUAUGUUACGCCGUUCGGAUCUGCACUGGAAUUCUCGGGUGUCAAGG` the log2 enrichment was 0.28.

Block 2 — technique: DHFR PCA, deep sequencing; matrix: yeast; added: (+)-ABA 710 µM; baseline: wild-type fitted maximum; reading: higher = stronger binding
Target: ABI1, truncated, D143A, DHFR fusion (Arabidopsis thaliana)
Notes: methotrexate growth selection, single substitutions
Parent: PYL1, truncated, DHFR fusion (Arabidopsis thaliana); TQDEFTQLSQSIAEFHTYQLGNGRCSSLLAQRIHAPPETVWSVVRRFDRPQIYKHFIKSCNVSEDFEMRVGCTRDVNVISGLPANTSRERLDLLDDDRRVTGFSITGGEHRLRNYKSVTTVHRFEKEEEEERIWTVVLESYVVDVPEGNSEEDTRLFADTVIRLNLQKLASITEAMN; partner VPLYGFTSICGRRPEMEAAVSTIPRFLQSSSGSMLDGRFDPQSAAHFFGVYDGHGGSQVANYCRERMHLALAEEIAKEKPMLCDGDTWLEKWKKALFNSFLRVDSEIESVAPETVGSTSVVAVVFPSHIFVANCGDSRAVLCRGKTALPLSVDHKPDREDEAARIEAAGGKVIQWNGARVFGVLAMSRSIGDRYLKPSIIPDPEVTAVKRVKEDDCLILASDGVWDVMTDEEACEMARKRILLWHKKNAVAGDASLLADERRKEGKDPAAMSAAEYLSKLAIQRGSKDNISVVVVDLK
`T120I` — result for “relative binding score”: 2.92%.
Under “relative binding score”, `S26V` is recorded as 89.8%.
Under “relative binding score”, `T160P` is recorded as -13.8%.
`P50Y`: “relative binding score” -22.8%.
`T101R`: “relative binding score” -0.971%.
`V161E`: “relative binding score” -12.7%.
`R155E`: “relative binding score” 78.7%.
`R163W`: “relative binding score” 53%.
`H34S` — result for “relative binding score”: 104%.
For `L20G`, “relative binding score” read 102%.

Block 3 — target: CCNB3, cyclin fold, Cln2 fusion (human); technique: yeast growth competition, sequencing; matrix: yeast; notes: weak parent motif; baseline: not given; reading: higher = stronger binding
Parent: INSM1 docking peptide (human); PKAIRKLHFEDEV; partner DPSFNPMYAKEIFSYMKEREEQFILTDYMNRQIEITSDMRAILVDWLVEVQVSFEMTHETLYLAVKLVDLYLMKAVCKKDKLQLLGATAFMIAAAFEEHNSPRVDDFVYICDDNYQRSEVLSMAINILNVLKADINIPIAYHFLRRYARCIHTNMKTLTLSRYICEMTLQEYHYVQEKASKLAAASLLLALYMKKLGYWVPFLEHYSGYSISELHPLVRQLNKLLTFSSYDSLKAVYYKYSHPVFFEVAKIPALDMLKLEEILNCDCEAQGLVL
For `PKAIRKLHFEQEV [D11Q]`, “normalised enrichment score” read 0.565.
Under “normalised enrichment score”, `PNAIRKLHFEDEV [K2N]` is recorded as 0.263.
`PKAPRKLHFEDEV [I4P]` — result for “normalised enrichment score”: 0.249.
`PKAIRKLHFFDEV [E10F]` — result for “normalised enrichment score”: 0.47.
`PKAIRKLHFMDEV [E10M]`: “normalised enrichment score” 0.327.
`PKAILKLHFEDEV [R5L]` — result for “normalised enrichment score”: 0.14.
`PKAIRKLHFEDRV [E12R]`: “normalised enrichment score” 0.468.
Under “normalised enrichment score”, `PHAIRKLHFEDEV [K2H]` is recorded as 0.645.
`PKCIRKLHFEDEV [A3C]`: “normalised enrichment score” 1.14.
Under “normalised enrichment score”, `PKAIRKRHFEDEV [L7R]` is recorded as 0.254.
`PKAIRQLHFEDEV [K6Q]` — result for “normalised enrichment score”: 0.74.
`PKAIRKLHEEDEV [F9E]` — result for “normalised enrichment score”: 0.21.

Mixed results
The fold induction of `PhoQ, residues 284 288 289 292 302 303 GNNTDL` is reported as 2.67 (PhoP, residues 12 14 15 18 19 STWGI (Escherichia coli, UniProt P23836); Sort-seq, measured: YFP reporter; E. coli; PhoQ-PhoP variant library, added: 10 µM Mg2+; baseline: high Mg2+ state, higher = stronger signaling).

A few entries again (block 2):
`R155E`: “relative binding score” 78.7%.
`R163W`: “relative binding score” 53%.
`H34S` — result for “relative binding score”: 104%.
For `L20G`, “relative binding score” read 102%.
